Measured values pooled from the literature.
Every numbered part comes from another study and shows a few of its results, in no order. Several values in a cell are separate wells, animals, samples, runs or records.

Set 1
Target: Replicase polyprotein 1ab, polymerase (rep, Severe acute respiratory syndrome coronavirus 2, UniProt P0DTD1)
Effect on: enzyme activity
Action: inhibitor
Concentration: 20 µM
Structure (SMILES) | inhibition [%]
COc1cccc(-n2nc(C(=O)O)cc2-c2ccc(C3CCCCC3)c(Cl)c2)c1 | -0.04
C[N+]1(C)CCCC(OC(=O)C(O)(c2ccccc2)c2ccccc2)C1 (stereo not drawn) | 19.3
COc1ccc(C[C@@H](C)[C@@H](C)Cc2ccc(OC)c(OC)c2)cc1OC | 3.12
N#CCC1(n2cc(-c3ncnc4[nH]ccc34)cn2)CN(C2CCN(C(=O)c3ccnc(C(F)(F)F)c3F)CC2)C1 | 1.35
O=C1NC(=O)c2c1c1c3ccccc3[nH]c1c1[nH]c3ccccc3c21 | 2.9
Cc1[nH]c(=O)c(C#N)cc1-c1ccncc1 | -14.2
Cc1c(C(=O)Nc2ccc(N3CCC(N4CCOCC4)CC3)c(C#N)c2)cnn1-c1ccc(Cl)cc1 | -7.58
Cc1[nH]c(/C=C2\C(=O)Nc3ccc(F)cc32)c(C)c1C(=O)NCCN1CCCC1 | 13.6
COC1=C(OC)C(=O)C(CCCCCCCCCCO)=C(C)C1=O | -5.62
Oc1cc(O)cc(/C=C/c2ccc(O)c(O)c2)c1 | 11
CC(=O)C1=C(O)C=C2Oc3c(C(C)=O)c(O)c(C)c(O)c3C2(C)C1=O (single isomer, unassigned; (+)) | -8.09
COc1ccc2cc(-c3nc(-c4ccc([S+](C)[O-])cc4)[nH]c3-c3ccncc3)ccc2c1 (stereo not drawn) | 0.21
NC(=O)c1cccc2cn(-c3ccc([C@@H]4CCCNC4)cc3)nc12 | 11.6
COc1ccccc1S(=O)(=O)Nc1ccc2c(c1)CN(C)C(=O)N2 | -1.44
CC1CCc2cc(F)cc3c(=O)c(C(=O)O)cn1c23 (stereo not drawn) | -2.83
CCn1cc(C(=O)O)c(=O)c2cc(F)c(N3CCNCC3)cc21 | 16.2
Oc1cc(Cl)ccc1Oc1ccc(Cl)cc1Cl | -0.44
Nc1ccn(C[C@@H](CO)OCP(=O)(O)O)c(=O)n1 | 1.24
NC(=Nc1ccccc1)Nc1ccccc1 | 7.67
O=C(Nc1ccc(S(=O)(=O)Nc2ccccc2Cl)c(Cl)c1)c1ccccn1 | 0.21
CC(=O)O/N=C1\C(=O)N(Cc2cc(Cl)ccc2Cl)c2ccc(Cl)cc21 | 0.21
N[C@@H]1c2cccnc2[C@H](OC(=O)N2CCC(n3c(=O)[nH]c4ncccc43)CC2)CC[C@H]1c1cccc(F)c1F | 2.79
COc1cccc2c1C(=O)c1c(O)c3c(c(O)c1C2=O)C[C@@](O)(C(=O)CO)C[C@@H]3O[C@H]1C[C@H](N)[C@@H](O)[C@H](C)O1 | 61.4
COc1ccc(NC(=O)c2ccc(C(=N)N(C)C)cc2)c(C(=O)Nc2ccc(Cl)cn2)c1 | 6.12
CC(C)OC(=O)c1cc2c(OCC(O)CNC(C)(C)C)cccc2[nH]1 (stereo not drawn) | -6.17

Set 2
Target: Replicase polyprotein 1ab, main protease (rep, Severe acute respiratory syndrome coronavirus 2, UniProt P0DTD1)
Effect on: enzyme activity
Action: inhibitor
Concentration: 20 µM
Setting: primary screen
SMILES | inhibition
COC(=O)C1=C(C)NC(C)=C(C(=O)OC)C1c1ccccc1[N+](=O)[O-] | 89.5% and 32.2%
CCCOc1ccc(CSc2nnc[nH]2)cc1 | 56.7%
CC1=C(CC(=O)O)c2cc(F)ccc2/C1=C\c1ccc([S+](C)[O-])cc1 (stereo not drawn) | 39.9%
Oc1cccc(-c2c3nc(c(-c4cccc(O)c4)c4ccc([nH]4)c(-c4cccc(O)c4)c4nc(c(-c5cccc(O)c5)c5ccc2[nH]5)CC4)C=C3)c1 | 82.4%
C/N=c1/nc(-c2ccccc2)n(-c2ccccc2)s1 | 99.8%

Set 3
Target: PABPC1L2, full length, GST fusion (mouse, UniProt A0ABA7IW68)
Method: RNAcompete
Molecule type: RNA
Sample: in vitro
Concentration: 20 nM
Setting: 7-mer, probes averaged, single round
Relative to: mean of 7-mers
Direction: higher = stronger binding
Construct (chain): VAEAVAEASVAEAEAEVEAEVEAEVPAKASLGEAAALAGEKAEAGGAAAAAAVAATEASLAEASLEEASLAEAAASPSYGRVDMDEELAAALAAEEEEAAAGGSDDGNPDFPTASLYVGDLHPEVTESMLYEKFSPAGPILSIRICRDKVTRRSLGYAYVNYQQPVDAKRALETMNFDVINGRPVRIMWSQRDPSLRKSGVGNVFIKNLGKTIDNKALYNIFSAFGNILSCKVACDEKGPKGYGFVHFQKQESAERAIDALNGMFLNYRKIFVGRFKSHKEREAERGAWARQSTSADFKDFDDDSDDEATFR
Sequence | 7-mer Z-score
AUUGUAA | 0.0859
GGCUAUG | 0.0152
UUGCAGC | -0.271
GAAUUCC | -0.255

Set 4
Target: Centromere-binding protein 1, full length, His-tagged (CBF1, Saccharomyces cerevisiae, UniProt P17106, residues 1-351)
UniProt P17106, sequence (whole entry, looked up): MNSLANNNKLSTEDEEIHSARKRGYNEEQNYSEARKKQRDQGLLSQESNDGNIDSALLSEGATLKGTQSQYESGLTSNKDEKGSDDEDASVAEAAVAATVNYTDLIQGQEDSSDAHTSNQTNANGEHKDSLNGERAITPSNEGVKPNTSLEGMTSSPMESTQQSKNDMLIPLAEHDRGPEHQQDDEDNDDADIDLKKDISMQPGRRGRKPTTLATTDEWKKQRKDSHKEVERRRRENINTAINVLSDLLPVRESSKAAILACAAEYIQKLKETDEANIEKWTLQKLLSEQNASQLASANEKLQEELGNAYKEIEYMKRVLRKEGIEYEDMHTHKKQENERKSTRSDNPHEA
Method: competition protein-binding microarray
Molecule type: double-stranded DNA, one strand shown
Sample: in vitro
Concentration: 2 µM
Setting: whole 60-bp probe, lowest competitor level
With: Pho4 competitor, 0.05 µM
Direction: higher = stronger binding
Shared flanks, not repeated: … GTCTTGATTCGCTTGACGCTGCTG
Sequence | fluorescence intensity [a.u.]
CTTTCCCGATCTTGGGCCGTGGGTGTAGCACATTTG | 70.8
TGGTTGCCAGCTCGCTATGTGACGGGCTTAAAGTAC | 69.6
ACCTAGAAATCGAGTCACGTGACGAAAATAAACAAG | 35100
AAAGCGGTAATTTGCTGAGTGGGTGCAGATATCTAT | 87.4
CTAACGAAGGTTTGTCACGTGACTTACAAGCCAAGT | 26000
CTTCTGTAAATTTGCACAGTGGGTGGACGCGCCCCG | 68.1
CTAACGAAGGTTTGTGTAGTGGGTGACAAGCCAAGT | 70.1
TGTACACATAATGGACACGTTTAACAATTAGTGAGC | 153

Set 5
Target: Interferon regulatory factor 3, full length, phosphomimetic (IRF3, Homo sapiens, UniProt Q14653, residues 1-427, S386D/S396D/S398D/S402D/T404D/S405D)
Method: protein-binding microarray
Molecule type: double-stranded DNA, one strand shown
Sample: in vitro
Concentration: 2540 nM top
Setting: 60-bp whole probe
With: salmon DNA 0.4 mg/ml
Relative to: random background probes
Direction: higher = stronger binding
Shared flanks, not repeated: GCCTAGCAC … GTCTTGATTCGCTTGACGCTGCTG
Target sequence (chain): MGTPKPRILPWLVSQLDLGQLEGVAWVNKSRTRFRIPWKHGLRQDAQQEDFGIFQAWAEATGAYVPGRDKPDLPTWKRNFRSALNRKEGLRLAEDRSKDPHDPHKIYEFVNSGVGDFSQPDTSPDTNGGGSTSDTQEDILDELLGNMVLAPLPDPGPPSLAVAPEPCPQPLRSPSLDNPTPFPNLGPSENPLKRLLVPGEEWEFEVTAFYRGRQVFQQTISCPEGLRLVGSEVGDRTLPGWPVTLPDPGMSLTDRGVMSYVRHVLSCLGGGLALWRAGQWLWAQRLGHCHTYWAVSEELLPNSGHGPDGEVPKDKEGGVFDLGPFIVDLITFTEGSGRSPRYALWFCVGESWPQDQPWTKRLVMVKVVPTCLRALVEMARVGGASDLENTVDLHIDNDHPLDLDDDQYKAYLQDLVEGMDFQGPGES
Sequence | fitted relative affinity [z-score]
TTAGGATTCGGACTGGGTTAGTGCTAG | 0.608
TTAGGTATCGGTCTCGGTCAGTGCTAG | 4.43
GACGATTTCAGACCGGAGACGTGCTAG | 0.695
GTTTCATTCCTGATCTCTGGGTGCTAG | 4.28
TTAGAAGTGAGTTTCGATTAGTGCTAG | 2.58
GACGTTTTCAGTTCCGAGACGTGCTAG | 3.49
GACGATTTCGGGACTGGATACGTGCTA | 1.97
TTAGGTTCCGTTTTCCTTTAGTGCTAG | 7.44

Set 6
Cell line: HEK-293T
Effect on: pseudovirus infection
Method: FDA-approved drug library screen
Organism: VSV pseudotyped with SARS-CoV-2 spike
Concentration: 10 µM
Time: 16 h
Relative to: vehicle-treated
Structure (SMILES) | GFP-positive cells [%]
CO/N=C(\C(=O)N[C@@H]1C(=O)N2C(C(=O)OC(C)OC(C)=O)=C(COC(N)=O)CS[C@H]12)c1ccco1 (stereo partly drawn) | 71.7
CC(C)Cn1cnc2c(N)nc3ccccc3c21 | 80
C[N+](C)(C)CCOC(N)=O | 98.1
CCC(C)n1ncn(-c2ccc(N3CCN(c4ccc(OCC5COC(Cn6cncn6)(c6ccc(Cl)cc6Cl)O5)cc4)CC3)cc2)c1=O (stereo not drawn) | 86.2

For quick reference, copied from above (set 5):
Sequence | fitted relative affinity [z-score]
GACGATTTCAGACCGGAGACGTGCTAG | 0.695
GTTTCATTCCTGATCTCTGGGTGCTAG | 4.28
TTAGAAGTGAGTTTCGATTAGTGCTAG | 2.58
